Assay results collected from several papers.
Each line is one published result; not all experiments were run side by side. ± gives the spread as reported.
USP5 ZnF-UBD domain: Ubiquitin carboxyl-terminal hydrolase 5, ZnF-UBD domain (USP5, Homo sapiens, UniProt P45974)
Sequence of UniProt P45974 (whole entry, looked up): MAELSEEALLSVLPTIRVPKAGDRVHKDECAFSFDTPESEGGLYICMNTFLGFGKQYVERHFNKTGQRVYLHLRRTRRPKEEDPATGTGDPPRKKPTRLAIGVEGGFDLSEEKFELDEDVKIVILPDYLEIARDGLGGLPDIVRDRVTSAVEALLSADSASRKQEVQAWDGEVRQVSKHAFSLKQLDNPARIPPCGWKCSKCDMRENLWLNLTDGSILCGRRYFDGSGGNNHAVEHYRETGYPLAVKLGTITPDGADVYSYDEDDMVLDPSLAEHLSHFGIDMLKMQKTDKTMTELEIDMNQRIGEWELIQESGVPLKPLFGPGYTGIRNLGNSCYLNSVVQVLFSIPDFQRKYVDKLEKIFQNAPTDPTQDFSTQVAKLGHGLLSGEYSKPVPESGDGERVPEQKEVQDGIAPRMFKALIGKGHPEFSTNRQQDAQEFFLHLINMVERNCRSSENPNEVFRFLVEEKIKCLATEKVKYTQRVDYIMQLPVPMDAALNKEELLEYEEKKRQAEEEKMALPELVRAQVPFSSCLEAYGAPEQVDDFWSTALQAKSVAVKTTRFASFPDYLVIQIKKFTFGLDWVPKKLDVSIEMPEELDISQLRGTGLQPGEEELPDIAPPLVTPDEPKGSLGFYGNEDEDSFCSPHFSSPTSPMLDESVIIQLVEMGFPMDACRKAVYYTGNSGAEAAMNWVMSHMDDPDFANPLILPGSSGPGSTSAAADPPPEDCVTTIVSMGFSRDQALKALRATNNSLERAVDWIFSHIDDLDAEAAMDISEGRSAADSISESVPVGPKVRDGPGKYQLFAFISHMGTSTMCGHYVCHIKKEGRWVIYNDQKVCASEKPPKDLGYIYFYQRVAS
GSPT1/CRBN with cereblon: GSPT1/CRBN, with cereblon (Homo sapiens, UniProt P15170+Q96SW2)
Sequence of UniProt Q96SW2 (whole entry, looked up): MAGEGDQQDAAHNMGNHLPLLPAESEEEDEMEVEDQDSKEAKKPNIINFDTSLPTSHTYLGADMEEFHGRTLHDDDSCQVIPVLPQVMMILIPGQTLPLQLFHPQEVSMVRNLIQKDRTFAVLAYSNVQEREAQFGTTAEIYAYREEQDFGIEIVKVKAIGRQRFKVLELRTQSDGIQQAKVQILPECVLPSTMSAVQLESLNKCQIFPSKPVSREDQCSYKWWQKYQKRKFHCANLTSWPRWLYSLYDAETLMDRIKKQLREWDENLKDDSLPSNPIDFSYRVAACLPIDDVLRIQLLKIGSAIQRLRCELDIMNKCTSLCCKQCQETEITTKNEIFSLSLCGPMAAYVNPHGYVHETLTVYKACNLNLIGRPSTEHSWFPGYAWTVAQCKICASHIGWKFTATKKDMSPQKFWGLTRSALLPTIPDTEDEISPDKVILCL
Sequence of UniProt P15170 (whole entry, looked up): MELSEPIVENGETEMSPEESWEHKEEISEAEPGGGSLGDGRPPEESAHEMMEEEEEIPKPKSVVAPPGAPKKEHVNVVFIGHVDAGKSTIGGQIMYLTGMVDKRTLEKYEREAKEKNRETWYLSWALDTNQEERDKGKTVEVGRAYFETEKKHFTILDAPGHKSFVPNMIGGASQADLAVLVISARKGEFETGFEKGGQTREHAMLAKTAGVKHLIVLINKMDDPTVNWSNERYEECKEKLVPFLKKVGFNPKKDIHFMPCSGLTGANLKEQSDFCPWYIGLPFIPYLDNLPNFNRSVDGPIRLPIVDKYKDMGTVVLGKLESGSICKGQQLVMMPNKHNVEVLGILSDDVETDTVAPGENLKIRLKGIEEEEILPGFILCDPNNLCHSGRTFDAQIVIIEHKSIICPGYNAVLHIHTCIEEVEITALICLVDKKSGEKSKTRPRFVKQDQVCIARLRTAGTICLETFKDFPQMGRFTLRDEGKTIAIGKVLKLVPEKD
HDAC11: Histone deacetylase 11 (HDAC11, Homo sapiens, UniProt Q96DB2)
Sequence of UniProt Q96DB2 (whole entry, looked up): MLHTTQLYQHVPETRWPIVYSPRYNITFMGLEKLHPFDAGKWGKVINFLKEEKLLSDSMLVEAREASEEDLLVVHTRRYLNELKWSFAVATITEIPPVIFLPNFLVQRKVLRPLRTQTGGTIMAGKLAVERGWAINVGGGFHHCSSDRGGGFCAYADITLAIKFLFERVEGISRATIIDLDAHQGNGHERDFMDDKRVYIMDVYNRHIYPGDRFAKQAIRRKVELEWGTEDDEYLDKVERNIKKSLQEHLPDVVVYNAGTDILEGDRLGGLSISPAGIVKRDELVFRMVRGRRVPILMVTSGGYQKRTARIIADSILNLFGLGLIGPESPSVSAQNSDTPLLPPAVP
GATD3: Glutamine amidotransferase-like class 1 domain-containing protein 3, mitochondrial (GATD3, Homo sapiens, UniProt P0DPI2)
Sequence of UniProt P0DPI2 (whole entry, looked up): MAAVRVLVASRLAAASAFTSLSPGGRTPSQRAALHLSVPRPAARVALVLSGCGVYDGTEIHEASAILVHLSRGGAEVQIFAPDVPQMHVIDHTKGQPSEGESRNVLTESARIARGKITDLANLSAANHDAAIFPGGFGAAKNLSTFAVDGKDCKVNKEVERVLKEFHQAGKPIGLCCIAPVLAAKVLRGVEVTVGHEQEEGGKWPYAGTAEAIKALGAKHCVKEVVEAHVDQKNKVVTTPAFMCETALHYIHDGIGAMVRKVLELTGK
Tumor necrosis factor receptor superfamily member 1A extracellular domain: Tumor necrosis factor receptor superfamily member 1A, extracellular domain (Homo sapiens, UniProt P19438)
Sequence of UniProt P19438 (whole entry, looked up): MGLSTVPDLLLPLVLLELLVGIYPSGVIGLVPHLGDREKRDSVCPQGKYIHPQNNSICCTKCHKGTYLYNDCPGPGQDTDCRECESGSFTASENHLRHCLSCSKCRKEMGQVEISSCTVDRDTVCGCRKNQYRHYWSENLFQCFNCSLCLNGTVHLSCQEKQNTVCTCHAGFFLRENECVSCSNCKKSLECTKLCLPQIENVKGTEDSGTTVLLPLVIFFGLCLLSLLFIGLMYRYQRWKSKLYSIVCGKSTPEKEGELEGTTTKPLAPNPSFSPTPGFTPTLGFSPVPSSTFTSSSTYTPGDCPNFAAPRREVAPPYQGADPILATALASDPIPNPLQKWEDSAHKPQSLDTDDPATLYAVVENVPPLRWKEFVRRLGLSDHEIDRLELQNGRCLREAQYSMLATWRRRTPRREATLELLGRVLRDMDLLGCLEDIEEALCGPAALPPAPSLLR
PLAU: Urokinase-type plasminogen activator (PLAU, Homo sapiens, UniProt P00749)
CSNK1A1/CRBN: Cereblon/Casein kinase I alpha (CSNK1A1/CRBN, Homo sapiens, UniProt P48729+Q96SW2)
Sequence of UniProt P48729 (whole entry, looked up): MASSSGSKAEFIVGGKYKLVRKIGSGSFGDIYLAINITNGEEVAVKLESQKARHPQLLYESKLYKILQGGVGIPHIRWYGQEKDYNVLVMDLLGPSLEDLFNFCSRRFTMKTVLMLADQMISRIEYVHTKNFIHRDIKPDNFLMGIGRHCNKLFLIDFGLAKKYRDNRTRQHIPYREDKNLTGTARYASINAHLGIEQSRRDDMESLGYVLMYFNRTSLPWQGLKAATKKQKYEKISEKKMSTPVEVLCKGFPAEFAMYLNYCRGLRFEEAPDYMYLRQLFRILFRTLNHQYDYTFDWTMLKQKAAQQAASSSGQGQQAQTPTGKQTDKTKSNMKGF
Sequence of UniProt P41595 (whole entry, looked up): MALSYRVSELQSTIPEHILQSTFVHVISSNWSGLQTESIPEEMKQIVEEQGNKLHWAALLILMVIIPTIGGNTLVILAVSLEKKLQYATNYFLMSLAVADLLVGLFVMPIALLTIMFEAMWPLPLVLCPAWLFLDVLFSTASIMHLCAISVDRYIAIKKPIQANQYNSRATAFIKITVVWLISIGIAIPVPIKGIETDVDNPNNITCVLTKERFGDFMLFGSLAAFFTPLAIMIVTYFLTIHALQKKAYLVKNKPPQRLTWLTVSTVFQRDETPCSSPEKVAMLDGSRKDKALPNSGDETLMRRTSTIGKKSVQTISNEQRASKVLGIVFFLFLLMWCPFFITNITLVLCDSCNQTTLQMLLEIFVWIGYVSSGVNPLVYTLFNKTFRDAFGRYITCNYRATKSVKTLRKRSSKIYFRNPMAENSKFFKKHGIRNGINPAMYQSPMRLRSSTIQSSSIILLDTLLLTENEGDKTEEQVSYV
Sequence of UniProt P41743 (whole entry, looked up): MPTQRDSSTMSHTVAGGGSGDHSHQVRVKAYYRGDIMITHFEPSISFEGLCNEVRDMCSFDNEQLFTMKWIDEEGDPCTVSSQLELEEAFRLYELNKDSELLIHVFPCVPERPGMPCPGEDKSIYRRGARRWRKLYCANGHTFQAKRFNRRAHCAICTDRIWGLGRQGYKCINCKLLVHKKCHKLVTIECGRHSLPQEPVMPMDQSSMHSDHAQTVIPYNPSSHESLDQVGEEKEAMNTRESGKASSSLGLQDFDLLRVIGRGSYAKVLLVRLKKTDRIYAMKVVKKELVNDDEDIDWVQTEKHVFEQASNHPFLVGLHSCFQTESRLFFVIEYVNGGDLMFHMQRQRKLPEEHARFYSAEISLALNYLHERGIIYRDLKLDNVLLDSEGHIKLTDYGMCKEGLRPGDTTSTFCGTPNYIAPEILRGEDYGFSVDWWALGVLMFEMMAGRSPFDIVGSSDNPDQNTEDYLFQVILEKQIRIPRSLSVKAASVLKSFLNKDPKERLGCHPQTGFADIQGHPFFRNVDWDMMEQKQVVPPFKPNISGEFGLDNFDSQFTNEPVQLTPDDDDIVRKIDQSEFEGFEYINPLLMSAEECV
Sequence of UniProt Q07817 (whole entry, looked up): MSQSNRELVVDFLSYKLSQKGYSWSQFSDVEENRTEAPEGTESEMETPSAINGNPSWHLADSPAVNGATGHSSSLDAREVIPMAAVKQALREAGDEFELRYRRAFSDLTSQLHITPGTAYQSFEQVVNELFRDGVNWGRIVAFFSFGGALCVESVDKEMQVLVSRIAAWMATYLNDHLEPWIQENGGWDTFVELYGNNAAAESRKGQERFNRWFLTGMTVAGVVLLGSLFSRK

| Compound | target | test | system | conditions | quantity | result |
| --- | --- | --- | --- | --- | --- | --- |
| CCc1ccc(/C=N/n2c(C)nc3ccc(C)cc3c2=O)s1 | collagenase | enzyme activity, inhibitor |  | together with: casein substrate | IC50 | 47.7 ± 1.59 µg/mL |
| O=C(O)CCC(=O)N1CCc2ccccc21 | USP5 ZnF-UBD domain |  |  |  | Kd | > 1000 µM |
| O=C1CCC(N2Cc3cc(NC(=O)c4cccc(F)c4)ccc3C2=O)C(=O)N1 (centres unmarked) | GSPT1/CRBN with cereblon | degrader, HiBiT endpoint | HEK293 GSPT1-HiBiT | 24 h | DC50 | > 10 µM |
| Cc1c(-c2ccc(N3CCc4cccc(C(=O)Nc5nc6ccccc6s5)c4C3)nc2C(=O)NCCOCCOCCOCCNc2cccc3c2C(=O)N(C2CCC(=O)NC2=O)C3=O)cnn1CC12CC3CC(CC(C3)C1)C2 (centres unmarked) | Bcl-2-like protein 1 (BCL2L1, Homo sapiens, UniProt Q07817) | degrader, western blot | MOLT-4 | 16 h | DC50 | 0.00118 µM |
| O=C(O)CNc1ncnc2ccccc12 | USP5 ZnF-UBD domain |  |  |  | Kd | > 1000 µM |
| CC(C)c1ccc(OS(=O)(=O)Oc2cccc(C(=O)NO)c2)cc1 | HDAC11 |  |  |  | Ki | 0.592 µM |
| O=C1CCC(N2Cc3cc(Nc4noc5ccccc45)ccc3C2=O)C(=O)N1 (centres unmarked) | GSPT1/CRBN with cereblon | degrader, HiBiT endpoint | HEK293 GSPT1-HiBiT | 24 h | DC50 | > 10 µM |
| O=C(O)CNc1ncccn1 | USP5 ZnF-UBD domain |  |  |  | Kd | > 1000 µM |
| Cc1nc2ccc(Cl)cc2c(=O)n1NC1=NC(=O)CS1 | collagenase | enzyme activity, inhibitor |  | together with: casein substrate | IC50 | 24.5 ± 0.71 µg/mL |
| Nc1ccccc1NC(=O)c1ccc(CNc2nccc(-c3cccnc3)n2)cc1 | GATD3 | inhibitor, competition pulldown | SW620 and MV4-11 lysate | 1 h | Kd | > 30.2 µM |
| COc1ccc(OC)c(-c2ccnc(C(=O)O)c2)c1 | Tumor necrosis factor receptor superfamily member 1A extracellular domain | SPR OneStep |  | immobilized target | Kd | 1220 ± 20 µM |
| O=C1CCC(N2Cc3cc(NC(=O)c4ccccc4)ccc3C2=O)C(=O)N1 (centres unmarked) | GSPT1/CRBN with cereblon | degrader, HiBiT endpoint | HEK293 GSPT1-HiBiT | 24 h | DC50 | > 10 µM |
| N#Cc1c2n(c3c(=O)n(CC(=O)O)cnc13)CCCC2 | USP5 ZnF-UBD domain |  |  |  | Kd | 207 µM |
| O=C(NO)c1cncc(OS(=O)(=O)Oc2ccc(C(F)(F)F)cc2)c1 | HDAC11 |  |  |  | Ki | 2.19 µM |
| CN1CCC(CNc2ccc3ncc(-c4cccc(OC(F)(F)F)c4)n3n2)CC1 | Sodium channel protein type 5 subunit alpha (SCN5A, Homo sapiens, UniProt Q14524) | membrane potential, blocker |  | 30 min, top concentration 10 µM | IC50 | 9.02 µM |
| N=C(N)c1ccc2cc(C#Cc3cccc(OC4CCCC4)c3)ccc2c1 | PLAU | inhibitor |  | pH 7.4 | Ki | 0.665 µM |
| COc1ccc(-c2nc(N3CCOCC3)c3sc(CN(C)c4ncc(C(=O)NO)cn4)cc3n2)cn1 | GATD3 | inhibitor, competition pulldown | SW620 and MV4-11 lysate | 1 h | Kd | > 30.2 µM |
| NCc1cc2c(cc1F)C(=O)N(C1CCC(=O)NC1=O)C2 (centres unmarked) | CSNK1A1/CRBN | degrader, Western blot | Hep3B | 6 h | DC50 | > 1 µM |
| O=C1CCC(N2Cc3cc(Nc4noc5cc(F)ccc45)ccc3C2=O)C(=O)N1 (centres unmarked) | GSPT1/CRBN with cereblon | degrader, HiBiT endpoint | HEK293 GSPT1-HiBiT | 24 h | DC50 | > 10 µM |
| O=C(O)CNC(=O)c1ccc(S(=O)(=O)N2CCC(n3c(=O)oc4ccccc43)CC2)cc1 | USP5 ZnF-UBD domain |  |  |  | Kd | 127 µM |
| Cc1cccc(C(=O)Nc2ccc3c(c2)CN(C2CCC(=O)NC2=O)C3=O)c1 (centres unmarked) | GSPT1/CRBN with cereblon | degrader, HiBiT endpoint | HEK293 GSPT1-HiBiT | 24 h | DC50 | > 10 µM |

| Compound | target | test | system | conditions | quantity | result |
| --- | --- | --- | --- | --- | --- | --- |
| OC[C@H]1N/C(=N\CC2CCCCC2)[C@H](O)[C@@H](O)[C@H]1O | β-glucosidase sweet almond | enzyme activity, inhibitor |  | pH 5.00 | Ki | 0.0492 ± 0.0099 µM |
| O=C(O)CCc1ccc2c(c1)OCO2 | USP5 ZnF-UBD domain |  |  |  | Kd | > 1000 µM |
| COc1cc(/C=N/n2c(C)nc3ccc(Br)cc3c2=O)ccc1OCc1ccc(Cl)cc1 | collagenase | enzyme activity, inhibitor |  | together with: casein substrate | IC50 | 32.5 ± 2.12 µg/mL |
| CC(C)CN(CC(C)C)C(=O)c1ccc2ccc(N)nc2c1 | PLAU | inhibitor |  | pH 7.4 | Ki | > 100 µM |
| O=C(O)c1ccc(-c2ccc3[nH]ccc3c2)cn1 | Tumor necrosis factor receptor superfamily member 1A extracellular domain | binding, SPR OneStep |  |  | Kd | 317 ± 4 µM |
| COc1ccc2cc(/C=N/n3c(C)nc4ccc(Br)cc4c3=O)ccc2c1 | collagenase | enzyme activity, inhibitor |  | together with: casein substrate | IC50 | 43.6 ± 3.01 µg/mL |
| O=C(CCCCCCNC(=O)c1cnc(N(c2ccccc2)c2ccccc2)nc1)NO | GATD3 | inhibitor, competition pulldown | SW620 and MV4-11 lysate | 1 h | Kd | 8.55 µM |
| O=C(O)c1cc(-c2ccc(O)cc2)ccn1 | Tumor necrosis factor receptor superfamily member 1A extracellular domain | binding, SPR OneStep |  |  | Kd | 925 ± 72 µM |
| Cn1nc(Nc2ccc3c(c2)CN(C2CCC(=O)NC2=O)C3=O)c2ccccc21 (centres unmarked) | CSNK1A1/CRBN | degrader, HiBiT endpoint | human cells | 24 h | DC50 | 0.004 µM |
| Cc1cc(OS(=O)(=O)Oc2ccc(C(C)C)cc2)cc(C(=O)NO)c1 | HDAC11 |  |  |  | Ki | 3.84 µM |
| COc1ccc(OC)c(-c2ccc(C(=O)O)nc2)c1 | Tumor necrosis factor receptor superfamily member 1A extracellular domain | SPR OneStep |  | immobilized target | Kd | 1400 ± 50 µM |
| COC(=O)Nc1ccc2nc(N)ccc2c1 | PLAU | inhibitor |  | pH 7.4 | Ki | > 50 µM |
| O=C(O)COc1cnc2ccccc2n1 | USP5 ZnF-UBD domain |  |  |  | Kd | > 1000 µM |
| CC[C@@H]1[C@H](F)C(=O)N[C@@H]1COc1nccc2cc(C(N)=O)c(OC)cc12 | Protein kinase C iota type (PRKCI, Homo sapiens, UniProt P41743) | ATP-site binding, ActivX KiNativ profiling | THP-1 cell lysate | Lys2 PKCi probe site | IC50 | > 5 µM |
| CCOc1cc(OCC)c(OCC)cc1/C=C/c1cc(Br)c2cc(C(=N)N)ccc2c1 | PLAU | inhibitor |  | pH 7.4 | Ki | 0.777 µM |
| N#C[C@@]12C[C@@H]1[C@@H](n1cnc3c(NC4CCCC4)nc(I)nc31)[C@H](O)[C@@H]2O | 5-hydroxytryptamine receptor 2B (HTR2B, Homo sapiens, UniProt P41595) | antagonist, Gq dissociation BRET |  | human receptor | Kb | 0.00893 µM |
| N=C(N)c1ccc2cc(/C=C/CCc3cccnc3)cc(Br)c2c1 | PLAU | inhibitor |  | pH 7.4 | Ki | 3.08 µM |
| Cc1nc2ccc(Br)cc2c(=O)n1/N=C/c1ccc(C(=O)O)cc1 | collagenase | enzyme activity, inhibitor |  | together with: casein substrate | IC50 | 24.9 ± 1.47 µg/mL |
| O=C(O)CCc1cnccn1 | USP5 ZnF-UBD domain |  |  |  | Kd | > 1000 µM |
| N#CC(CCOc1cccc2ccc(N)nc12)(c1ccccc1)c1ccccc1 | PLAU | inhibitor |  | pH 7.4 | Ki | > 40 µM |

A few entries again:
| Compound | target | test | system | conditions | quantity | result |
| --- | --- | --- | --- | --- | --- | --- |
| O=C1CCC(N2Cc3cc(Nc4noc5cc(F)ccc45)ccc3C2=O)C(=O)N1 (centres unmarked) | GSPT1/CRBN with cereblon | degrader, HiBiT endpoint | HEK293 GSPT1-HiBiT | 24 h | DC50 | > 10 µM |
| Cc1cccc(C(=O)Nc2ccc3c(c2)CN(C2CCC(=O)NC2=O)C3=O)c1 (centres unmarked) | GSPT1/CRBN with cereblon | degrader, HiBiT endpoint | HEK293 GSPT1-HiBiT | 24 h | DC50 | > 10 µM |
| O=C(O)CCc1ccc2c(c1)OCO2 | USP5 ZnF-UBD domain |  |  |  | Kd | > 1000 µM |
| O=C(O)c1cc(-c2ccc(O)cc2)ccn1 | Tumor necrosis factor receptor superfamily member 1A extracellular domain | binding, SPR OneStep |  |  | Kd | 925 ± 72 µM |
